# Literature values as cited in several papers.
# Each line is one published result; not all experiments were run side by side. ± gives the spread as reported.
Structure (SMILES),target or system,test,test system,conditions,scale,quantity,value
CC(C)(c1ccc(O)cc1)c1ccc(O)cc1,Xenopus laevis,measured: female phenotype frequency,tadpoles,,lowest effective,feminizing concentration,23 µg/L
O=C(Nc1ncnc2c1ncn2[C@@H]1O[C@@H]2COP(=O)(O)OC2C1O)c1ccccc1 (stereo in doubt),PDE2A,"cyclic nucleotide hydrolysis, substrate or inhibitor, isothermal titration calorimetry",,,,Km or Ki,240000 nM
O=C1c2ccccc2-c2c1c1ccc([N+](=O)[O-])cc1c(=O)n2CCCn1ccnc1,CNS SF-539,cell growth,,,,GI50,16 nM
O=C1c2cccc3c2[C@H](CCC3)CN1[C@@H]1CN2CCC1CC2,,,"patients, plasma","oral, dose not given, netupitant-palonosetron combination, together with: docetaxel 75 to 100 mg/m^2 IV",,CL/F,7 L/h
COc1cccc2c1C(=O)c1c(O)c3c(c(O)c1C2=O)C[C@@](O)(C(=O)CO)C[C@@H]3O[C@H]1C[C@H](N)[C@H](O)[C@H](C)O1,hiPSC-derived cardiomyocytes,contractility,,72 h,,lowest effective concentration,1.2 µM
O=C1c2ccccc2-c2c1c1ccc([N+](=O)[O-])cc1c(=O)n2CCCN1CCOCC1,prostate DU-145,cell growth,,,,GI50,85 nM
COc1cc2c(Nc3ccc(Br)cc3F)ncnc2cc1OCC1CCN(C)CC1,hiPSC-derived cardiomyocytes,,,"72 h, tested 0 to 100 µM",,beating cessation concentration,33 µM
O=C1c2ccccc2-c2c1c1ccc([N+](=O)[O-])cc1c(=O)n2C[C@H](O)CO,renal SN12C,cell growth,,,,GI50,241 nM
Nc1ncnc2c1nc(Br)n2[C@@H]1O[C@@H]2COP(=O)(O)O[C@H]2[C@H]1O,PDE1C,"cyclic nucleotide hydrolysis, substrate or inhibitor, isothermal titration calorimetry",,,,Km or Ki,18000 nM
CNC(=O)c1cc(Oc2ccc(NC(=O)Nc3ccc(Cl)c(C(F)(F)F)c3)c(F)c2)ccn1,hiPSC-derived cardiomyocytes,contractility,,72 h,,lowest effective concentration,3.7 µM
O=C(O)CNC(=O)c1ccccc1[131I],,,"normal rat, liver","10 min, together with: co-injected 99mTc-1",,percent injected dose,4 ± 0.7 %ID
Cc1ccccc1-c1cc(N2CCN(C)CC2)ncc1N(C)C(=O)C(C)(C)c1cc(C(F)(F)F)cc(C(F)(F)F)c1,,,"patients, plasma","oral, dose not given, netupitant-palonosetron combination, together with: cyclophosphamide 500 to 1000 mg/m^2 IV",,Vz/F,2260 L
Cc1ccc(Nc2nccc(N(C)c3ccc4c(C)n(C)nc4c3)n2)cc1S(N)(=O)=O,hiPSC-derived cardiomyocytes,contractility,,72 h,,lowest effective concentration,73.9 µM
O=C1c2ccccc2-c2c1c1ccc(Br)cc1c(=O)n2CCCn1ccnc1,NCI-60 panel mean,cell growth,,,,GI50,1260 nM

# Some of these lines once more:
Structure (SMILES),target or system,test,test system,conditions,scale,quantity,value
O=C1c2ccccc2-c2c1c1ccc([N+](=O)[O-])cc1c(=O)n2C[C@H](O)CO,renal SN12C,cell growth,,,,GI50,241 nM
O=C1c2cccc3c2[C@H](CCC3)CN1[C@@H]1CN2CCC1CC2,,,"patients, plasma","oral, dose not given, netupitant-palonosetron combination, together with: docetaxel 75 to 100 mg/m^2 IV",,CL/F,7 L/h
